Measured values pooled from the literature.
Every numbered part comes from another study and shows a few of its results, in no order.

Series 1 — method: competition protein-binding microarray; molecule type: double-stranded DNA, one strand shown; sample: in vitro; tested at: 2 µM; together with: Cbf1 competitor, 0.05 µM; reading: higher = stronger binding
Target: Phosphate system positive regulatory protein PHO4, full length, GST-tagged (PHO4, Saccharomyces cerevisiae, UniProt P07270, residues 1-312)
Setting: whole 60-bp probe, lowest competitor level
Construct (chain): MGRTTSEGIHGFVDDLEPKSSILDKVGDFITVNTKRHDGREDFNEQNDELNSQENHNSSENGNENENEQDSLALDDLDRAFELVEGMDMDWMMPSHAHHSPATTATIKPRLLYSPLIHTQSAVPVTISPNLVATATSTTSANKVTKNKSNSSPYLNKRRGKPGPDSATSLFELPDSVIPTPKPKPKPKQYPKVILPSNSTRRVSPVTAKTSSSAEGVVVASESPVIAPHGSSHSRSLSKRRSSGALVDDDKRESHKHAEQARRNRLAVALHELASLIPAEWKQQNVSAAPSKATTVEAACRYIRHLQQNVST
The fluorescence intensity of `AAAGCGGTAATTTGTCACGATACTTCACATATCTATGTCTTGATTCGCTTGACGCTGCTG` is reported as 5260 a.u.
For `GCGGACCAAAAATCGCACGTAGCGCGATATTGTCGGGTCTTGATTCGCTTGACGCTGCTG`, the fluorescence intensity was 6560 a.u.
`CTAACGAAGGTTTTTCACGTGAAGTACAAGCCAAGTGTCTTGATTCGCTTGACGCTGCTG` has a fluorescence intensity of 8720 a.u.
The fluorescence intensity of `CTAACGAAGGTTTGGCATGTGGGTGACAAGCCAAGTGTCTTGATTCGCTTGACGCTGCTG` is reported as 11900 a.u.
`CTAACGAAGGTTTTTCACGTGCTGTACAAGCCAAGTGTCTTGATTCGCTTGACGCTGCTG` gave a fluorescence intensity of 13800 a.u.
With `CGTCCTAGCGATTGAGTCGTGGGTGCCATGAGGAAGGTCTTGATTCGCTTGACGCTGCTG` the fluorescence intensity was 9460 a.u.
For `AAAGCGGTAATTTGCTACGTGGGTGCAGATATCTATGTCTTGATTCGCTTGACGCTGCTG`, the fluorescence intensity was 7530 a.u.
`CCGGACACTAGGAAACACGCACAAAATTCTCAGGCAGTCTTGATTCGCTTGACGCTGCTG` has a fluorescence intensity of 6710 a.u.
`AAATGGGATAACCGTCACGTGACTCGCACTAGGGGCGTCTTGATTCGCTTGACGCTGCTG` gave a fluorescence intensity of 11100 a.u.
With `CATACCCAACCTTGTCACTCGACTTAAGATATTTGTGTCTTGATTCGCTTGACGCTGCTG` the fluorescence intensity was 3410 a.u.
`CGTTATGTCCCTAACGACGTGCAATAACTTGCGGAAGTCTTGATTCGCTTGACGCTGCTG` has a fluorescence intensity of 5890 a.u.
`CTTCTGTAAATTTGTCACGTCACTTGACGCGCCCCGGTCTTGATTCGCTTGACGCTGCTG` gave a fluorescence intensity of 4630 a.u.
For `TGGGTATCTGCTTGTCAGGTGCAGGCCCAACTATCTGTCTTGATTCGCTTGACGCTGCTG`, the fluorescence intensity was 4040 a.u.
`CAGAAGGACTATTCACACGTGCCAGGCAAATTTTTTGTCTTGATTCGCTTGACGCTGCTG` has a fluorescence intensity of 16900 a.u.
For `CTTCTGTAAATTTGGACTGTGGGTGGACGCGCCCCGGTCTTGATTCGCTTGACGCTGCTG`, the fluorescence intensity was 4580 a.u.
`CTTTCCCGATCTTGTCACTGAACTTTAGCACATTTGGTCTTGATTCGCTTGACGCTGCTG` gave a fluorescence intensity of 3700 a.u.
`TAATTTGTAGTATTGAACGTGACGGGAAACAAAAAAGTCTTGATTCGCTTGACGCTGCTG` has a fluorescence intensity of 8260 a.u.
The fluorescence intensity of `CCGGGTGATGCTTGACGCGTTTTTGGAAACGATGAGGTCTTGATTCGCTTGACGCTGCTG` is reported as 6250 a.u.
`TACTATAGGGGCCGACACGTTAGGTGATGACGATAAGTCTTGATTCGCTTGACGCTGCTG` gave a fluorescence intensity of 5770 a.u.

Series 2 — method: protein binding microarray; molecule type: double-stranded DNA, one strand shown; sample: in vitro; tested at: not given; relative to: not given; reading: higher = stronger binding
Target: Histone acetyltransferase KAT6A, both winged helices, GST fusion (KAT6A, Homo sapiens, UniProt Q92794, residues 1-181)
Setting: 8-mer, flanks averaged, mean of 2 arrays, mostly near background
Construct (chain): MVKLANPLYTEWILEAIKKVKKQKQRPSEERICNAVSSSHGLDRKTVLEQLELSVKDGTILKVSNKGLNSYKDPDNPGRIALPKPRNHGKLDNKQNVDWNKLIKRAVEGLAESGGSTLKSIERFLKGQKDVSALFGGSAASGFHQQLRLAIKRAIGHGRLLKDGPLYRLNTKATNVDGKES
The E-score of `AGCGCTAT` is reported as 0.323.
For `CCGGGCAA`, the E-score was 0.187.
For `CCCAGTGA`, the E-score was -0.246.
`CCAGGAAC` gave an E-score of -0.03.
With `CCATTCAC` the E-score was -0.0761.
`AACCCTGA` has an E-score of -0.144.
With `CCGAGGGA` the E-score was -0.0241.
`CTCTACAG` has an E-score of -0.0929.
The E-score of `GAAGGGTA` is reported as 0.0449.
`ACGGGGCC` has an E-score of 0.0712.
With `TATAAAGA` the E-score was -0.0106.
The E-score of `CTCAGCGA` is reported as 0.00565.
For `TCAGATAA`, the E-score was -0.0935.
`GGGATTAA` has an E-score of -0.00128.
The E-score of `ACCCTTGG` is reported as -0.142.
For `CTAGGTCC`, the E-score was 0.0106.
The E-score of `CCATAACC` is reported as -0.214.
`CTCACTGA` gave an E-score of -0.168.
`GAACCAGC` has an E-score of 0.0317.
The E-score of `ACCCACGA` is reported as -0.157.
The E-score of `CATGGGGC` is reported as -0.1.
The E-score of `ATTTTGTG` is reported as -0.0826.
`ATCCCGAC` has an E-score of 0.171.

Series 3 — method: EMSA with sequencing; molecule type: double-stranded DNA, one strand shown; sample: in vitro; tested at: 10 and 20 nM; relative to: negative control set to 0; reading: higher = stronger binding
Target: Hepatocyte nuclear factor 3-alpha (Foxa1, Mus musculus, UniProt P35582, residues 1-468, full length assumed)
Setting: whole designed probe, mean of two concentrations, ends assumed
Target sequence (chain): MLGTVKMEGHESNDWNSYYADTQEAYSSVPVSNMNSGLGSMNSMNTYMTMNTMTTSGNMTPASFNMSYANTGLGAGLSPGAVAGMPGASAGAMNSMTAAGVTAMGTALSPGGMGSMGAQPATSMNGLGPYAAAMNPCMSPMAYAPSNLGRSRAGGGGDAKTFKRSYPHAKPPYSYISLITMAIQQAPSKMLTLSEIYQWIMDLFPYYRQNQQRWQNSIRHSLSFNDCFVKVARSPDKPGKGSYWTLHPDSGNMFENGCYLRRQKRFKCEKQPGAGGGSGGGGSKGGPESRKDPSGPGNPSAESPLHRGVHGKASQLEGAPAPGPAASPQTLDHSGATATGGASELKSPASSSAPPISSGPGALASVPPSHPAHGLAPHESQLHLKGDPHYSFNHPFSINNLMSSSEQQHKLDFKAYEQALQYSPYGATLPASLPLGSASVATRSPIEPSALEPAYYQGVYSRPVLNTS
Under “normalised bound fraction”, `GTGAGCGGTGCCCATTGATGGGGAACTGATATCAGGTTAAAAGAAACATTTCCTGGCAGATGCACAGCTCTGGAAAATTTTGTTTTCCAAACGTCTGGAAAACAAAAGGAAAGCTTCCTTTGTTTACATAGCCAAGAAGGTTGAGTGATGAGAATCAGAAAAGATTTTGAAGCAATACAAGATCTTCTCCTAGGGCCATTAGAGATCAGCTAATCTGTTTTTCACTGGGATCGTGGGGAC` is recorded as 0.49 ratio.
`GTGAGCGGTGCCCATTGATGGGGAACTCGGCCAGCCTGGCTTCTGCGCCCCGCCAGGAGGTCGCGGAGCGGAGCGCGGCCAGGAAGTGAGCTGAGAGTGACAGCTCCCCCCACGCGAGAATAAACAAACATCCACACACTGGATGACTCATTCCTCTTCTTTCTTTCGGGAGGAGGGGAGAAAGGAGCGGGAGGGCGGGCGGGCAGGGGAGAGGCAGGCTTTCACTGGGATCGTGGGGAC` — result for “normalised bound fraction”: 0.303 ratio.
`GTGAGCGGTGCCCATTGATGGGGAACCAAATGCTATAAAGCCAAGGCGCCCAAGCACCAGGATCCAGGGGCTGGGGTGGCAGCATGCCAGCGCCCTGAGGGCAGTGACAGCTTGCATGTGTGTTTACATACTGTTTGCAAATAAAGAGTAAGTGGGCAGATCCCTGAGCCCTCGTCACTTCCCACCATCCCTGGGGACCCACTGCCTAGTTCAGCTTCCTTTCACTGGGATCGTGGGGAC`: “normalised bound fraction” 0.426 ratio.
For `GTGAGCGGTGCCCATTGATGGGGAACATCTTCCCCCTCTTCCTTGCCCCACCAGCTCACCTTCCCGGGTATCTGCAAATAAGTATTTATTTTCAAGCCGGCATTCGTTAACCCTCTTCACGCGCATACTGCTGTTTACTTTGGATCTAACATGGTCCTTTGGCGACGCCAGGCTCCGGGAGAGCAAAGCACCGTGTCAGGGCCATGATCCGGGGTGGCCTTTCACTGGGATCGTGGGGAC`, “normalised bound fraction” read 0.391 ratio.
`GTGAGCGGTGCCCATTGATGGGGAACGGCCATAAATACATATTCATATACATTTGACTAAATGCCACATATGCTTTAACATTTTCTTTTAAGAAAATGTAACACTTTGAAGATTCAGTGTAAACATCCAAATAGTAAACTAAATGATTTCCTTAGCTCCTTGACATATCCTAGAGTATCTATTTTAGTTTATAAATATGATTTTAAAAAATTAGGTACATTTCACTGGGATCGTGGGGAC` — result for “normalised bound fraction”: 0.225 ratio.

Series 4 — method: RNA Bind-n-Seq; molecule type: RNA; sample: in vitro; tested at: 365 nM; relative to: no-protein control; reading: higher = stronger binding
Target: RNA binding protein fox-1 homolog 2, RRM domain, GST-SBP tag (RBFOX2, Homo sapiens, UniProt O43251-10, residues 100-194)
Setting: natural RNA segment, single round, ends assumed
Residues (chain): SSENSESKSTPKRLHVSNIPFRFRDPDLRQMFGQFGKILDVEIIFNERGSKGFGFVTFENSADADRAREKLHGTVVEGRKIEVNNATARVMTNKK
`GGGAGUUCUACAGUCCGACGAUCCUUCUCAACCCUAGACAAAGCCUUUGGCCAAGAGGGAGGUGCUGUUAGUUGGGCAGCCCUUCUGGGUUUCAGAGACCGGUGUUGGCUCUAGACUGGUCUCAUCUCCAUUGUGGAAUUCUCGGGUGCCAA`: “RBNS enrichment (R)” 0.338.
Under “RBNS enrichment (R)”, `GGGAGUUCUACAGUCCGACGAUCAUGUCCUCAGUAACUCAUACCUGGCUUUGAAUUAGGAGUGGCUAGGAGGGUUCUAGUCUGUGCAAACAUUAAUAAAAAUUAUUUUGAAUUUUAGGAUUUUAAAAUGGUUGUGGAAUUCUCGGGUGCCAA` is recorded as 0.914.
`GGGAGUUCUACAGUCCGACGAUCUUCCCUUCCCUCACCCCUGACAUGUACCCCCUUUCCCUUCUGGCUGUUCCCCUGCUCUGUUGCCUCUCUAAGGUAACAUUUAUAGAAGAAAUGGAAUGAAUCUCCAAGGCUGGAAUUCUCGGGUGCCAA`: “RBNS enrichment (R)” 0.589.
`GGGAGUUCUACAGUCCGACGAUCUGAGUCAAGCUGGCCAUGAACGCGUACACUUCAGUUCAGCAGGAUGGGCUGGAGAGCCUCUCUGUGCAGCGGUGUGGGGUGAGCCCUGCUGUGGCCUCCUUGUGGUGGUCUGGAAUUCUCGGGUGCCAA` — result for “RBNS enrichment (R)”: 0.559.
Under “RBNS enrichment (R)”, `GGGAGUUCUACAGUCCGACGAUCGUCAUCAGAAACCCCGUACUCAUGGCCCUGCUCAGGGCUGCUGUUGACUCUGCUUGAGAGGUGGCACUUGUCGAACAGCCUGGCACCUGGUAUCCAGGCUCCAACGACCUUGGAAUUCUCGGGUGCCAA` is recorded as 0.342.
`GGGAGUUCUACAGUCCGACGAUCUACUCCAUUGGAGGGAAAGGAAGAGUCUUAGAAUUCCUAAGGGAACCUUAGCAUAAAGGUUUUGGGGAAGGAGGCCGUAGGCCGGCCCGGAGGAAGCAAUUCCACUUGGUUGGAAUUCUCGGGUGCCAA` — result for “RBNS enrichment (R)”: 0.482.
For `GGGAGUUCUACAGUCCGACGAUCAGCCAGCUCAUGGAACGUAGGCCGCAUACGCACAUCUUACCAGUAACCAGUGUGGUUGCCAGAGUGGUCAGGCUGCUCUGAGACAGGGAAGUCUGAUCUCCGCAGGAAACUGGAAUUCUCGGGUGCCAA`, “RBNS enrichment (R)” read 0.266.
For `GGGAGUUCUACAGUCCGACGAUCACUGAGGCAAAUGGUACCUCAUUGGGUUGGAGACCCUCACCGGUUACUAUUUAUUUUACCCCACACCCUAAGUUGGCAUACUUAUUCCCAGUCUUACUCCUGAUCUCUUUUGGAAUUCUCGGGUGCCAA`, “RBNS enrichment (R)” read 0.535.

Excerpt of the above (series 1):
`CTAACGAAGGTTTTTCACGTGCTGTACAAGCCAAGTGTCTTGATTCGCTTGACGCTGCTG` gave a fluorescence intensity of 13800 a.u.
`CAGAAGGACTATTCACACGTGCCAGGCAAATTTTTTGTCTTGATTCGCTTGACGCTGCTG` has a fluorescence intensity of 16900 a.u.
For `AAAGCGGTAATTTGCTACGTGGGTGCAGATATCTATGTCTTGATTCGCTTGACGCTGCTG`, the fluorescence intensity was 7530 a.u.
`CGTTATGTCCCTAACGACGTGCAATAACTTGCGGAAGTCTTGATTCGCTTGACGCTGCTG` has a fluorescence intensity of 5890 a.u.
